Assay results of several laboratories.
Numbered parts are unrelated; each lists some results of a single study. Changes are numbered by the printed parent chain.

Series 1
Target: Prothrombin, mature alpha-thrombin (F2, Homo sapiens, UniProt P00734)
Technique: aptamer microarray, sandwich
Molecule type: DNA with 2'F-ANA
Sample: in vitro
Tested at: 200 nM
Notes: whole 15-mer aptamer, many near background
Added: Cy3 exosite-II aptamer, 400 nM
Direction: higher = stronger binding
Quantity: mean fluorescence intensity
Strand: GGTTGGTGTGGTTGG
2'F-ANA at 2 6 9 12 13 14: 136 a.u.
2'F-ANA at 1 2 5 9 11 14: 47.8 a.u.
2'F-ANA at 2 4 5 8 9: 86.6 a.u.
2'F-ANA at 1 4 5 7 8 10 12 14 15: 51.2 a.u.
2'F-ANA at 1 2 3 4 7 8 9 11 12 14 15: 76.1 a.u.
2'F-ANA at 1 2 4 7 8 9 12 13 14 15: 56.1 a.u.
2'F-ANA at 1 3 4 7 9 10 11 14 15: 54.3 a.u.
2'F-ANA at 1 2 8 10 11 12 13 14 15: 46.8 a.u.
2'F-ANA at 4 6 9 10 11 12 14 15: 60.8 a.u.
2'F-ANA at 4 5 6 8 11 14 15: 62.5 a.u.
2'F-ANA at 4 8 10 11 13 15: 66.9 a.u.
2'F-ANA at 4 6 7 12 13: 376 a.u.
2'F-ANA at 2 6 7 12 13 14: 165 a.u.
2'F-ANA at 2 3 7 9 10 11 13 15: 310 a.u.
2'F-ANA at 1 2 3 6 9 12 14 15: 75.6 a.u.
2'F-ANA at 1 2 6 7 8 10 11 13 15: 65.4 a.u.
2'F-ANA at 1 5 8 11 12 13 14: 72 a.u.
2'F-ANA at 1 2 6 7 8 9: 183 a.u.
2'F-ANA at 2 3 5 7 8 10 11 13: 55.3 a.u.
2'F-ANA at 1 4 5 6 8 9 10 11 12 14 15: 52.6 a.u.
2'F-ANA at 5 10 11: 45.9 a.u.
2'F-ANA at 2 3 8 9 13 14: 395 a.u.
2'F-ANA at 1 3 5 13 14: 59.1 a.u.
2'F-ANA at 1 2 4 5 8 9 11 15: 51.5 a.u.
2'F-ANA at 1 5 9 11 12 13 15: 67.6 a.u.

Series 2
Target: Histone acetyltransferase KAT6A, winged helix 1, GST fusion (KAT6A, Homo sapiens, UniProt Q92794, residues 1-85)
Technique: protein binding microarray
Molecule type: double-stranded DNA, one strand shown
Sample: in vitro
Tested at: not given
Notes: 8-mer, flanks averaged, mean of 2 arrays, mostly near background
Reference: not given
Direction: higher = stronger binding
Quantity: E-score
Target sequence (chain): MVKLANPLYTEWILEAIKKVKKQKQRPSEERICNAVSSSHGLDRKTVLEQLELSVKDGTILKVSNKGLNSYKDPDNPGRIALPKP
GGACTCCC: 0.00901
ATACTATC: -0.0385
AACTGGGT: -0.236
CCAAACAC: -0.0233
ACTCGATG: -0.168
GTGAGCAA: -0.127
TCGTAGAA: -0.272
AGAGGAAA: -0.159
TGCCCTAA: -0.0687
CTCGTCCA: -0.165
AGCTAGTG: -0.202
GCTCCTAC: -0.0706
CTCACGAA: -0.0545
GGCTAGCC: 0.029
TACGAGAA: -0.0128
TGGGGAAA: -0.185
CGAAGCAC: -0.25
AGGTCGTA: -0.133
CTTCACTA: -0.256
ATTAGCAA: -0.13
CACTGTAA: -0.144
ATACAAGC: -0.0785
GGCCGATA: 0.307
GTGGCTAA: -0.0146
GAACGCGA: 0.0447

Series 3
Target: ABI1, truncated, D143A, DHFR fusion (Arabidopsis thaliana)
Technique: DHFR PCA, deep sequencing
Sample: yeast
Notes: methotrexate growth selection, single substitutions
Added: (+)-ABA 200 µM
Reference: wild-type fitted maximum
Direction: higher = stronger binding
Quantity: relative binding score
Parent: PYL1, truncated, DHFR fusion (Arabidopsis thaliana); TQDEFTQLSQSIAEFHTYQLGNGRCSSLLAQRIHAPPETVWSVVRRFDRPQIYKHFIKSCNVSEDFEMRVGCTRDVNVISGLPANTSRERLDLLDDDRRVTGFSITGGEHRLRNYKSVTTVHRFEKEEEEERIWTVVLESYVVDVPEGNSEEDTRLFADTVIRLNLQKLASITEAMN
I133S: 104%
E109P: 52.2%
T6A: 101%
D96R: 10.4%
V142Y: 77.2%
K116T: 98.7%
H16P: 13.3%
P146L: 47.2%
C72I: 98.9%
L20P: 108%
I162A: 26.6%
D48E: 97.7%
D153N: 61.4%
T173R: 8.73%
L8F: 111%
A35V: 76.4%
Q10W: 84.2%
R123N: 101%
R163N: 81.6%
D48T: 47.8%
A175V: 98.6%
G108M: 21.9%
K54T: 2.25%
D65S: 98.3%
E64M: 92.9%

Series 4
Target: UBE2T UBC core domain (UniProt Q9NPD8)
UniProt Q9NPD8, sequence (whole entry, looked up): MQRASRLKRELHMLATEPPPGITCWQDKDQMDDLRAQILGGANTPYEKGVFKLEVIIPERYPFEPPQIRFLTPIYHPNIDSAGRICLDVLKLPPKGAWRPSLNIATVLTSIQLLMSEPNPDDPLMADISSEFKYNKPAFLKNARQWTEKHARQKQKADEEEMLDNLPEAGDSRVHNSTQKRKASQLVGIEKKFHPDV
Technique: yeast two-hybrid
Sample: yeast
Notes: mostly zero background
Reference: not given
Direction: higher = stronger interaction
Quantity: lacZ reporter activity
B1: ANAPC11 RING domain (UniProt Q9NYG5); chain GICRMAFNGCCPDCKVPGDDCPLVWGQCSHCFHMHCILKWLHAQQVQQHCPMCRQEWKFKE
B2: MYCBP2 RING domain (UniProt O75592); chain TSLKQDADDMCMICFTEALSAAPAIQLDCSHIFHLQCCRRVLENRWLGPRITFGFISCPICKNKINHIVLKD
B3: MKRN2 RING domain (UniProt Q9H000); chain FAFQASQDKVCSICMEVILEKASASERRFGILSNCNHTYCLSCIRQWRCAKQFENPIIKSCPECRVISEFVIPSV
B4: RNF2 RING domain (UniProt Q99496); chain SPRSLHSELMCPICLDMLKNTMTTKECLHRFCADCIITALRSGNKECPTCRKKLVSKRSLR
B5: TRIM54 RING domain (UniProt Q9BYV2); chain SMDNLEKQLICPICLEMFSKPVVILPCQHNLCRKCANDVFQASNPLWQSRGSTTVSSGGRFRCPSCRHEVVLDRHGV
B6: TRIM31 RING domain (UniProt Q9BZY9); chain FVNKLQEEVICPICLDILQKPVTIDCGHNFCLKCITQIGETSCGFFKCPLCKTSVRKNAIRF
B7: MEX3B RING domain (UniProt Q6ZN04); chain SGLRRKGSRDCSVCFESEVIAALVPCGHNLFCMECANRICEKSEPECPVCHTAVTQAIRIF
B8: TRIM37 RING domain (UniProt O94972); chain SVESIAEVFRCFICMEKLRDARLCPHCSKLCCFSCIRRWLTEQRAQCPHCRAPLQLRELVN
B9: RNF122 RING domain (UniProt Q9H9V4); chain AKKLQLYGQTCAVCLEDFKGKDELGVLPCQHAFHRKCLVKWLEVRCVCPMCNKPIASPSEAT
B1 (ANAPC11 RING domain): 0
B2 (MYCBP2 RING domain): 0
B3 (MKRN2 RING domain): 0
MNDVLENELQCIICSEYFIEAVTLNCAHSFCSYCINEWMKRKIECPICRKDIKSKTYSL (RNF8 RING domain (UniProt O76064)): 0
B4 (RNF2 RING domain): 0
B5 (TRIM54 RING domain): 0
B6 (TRIM31 RING domain): 0
YPEEVDDDLICHICLQALLDPLDTPCGHTYCTLCLTNFLVEKDFCPMDRKPLVLQHCKK (LNX1 RING domain (UniProt Q8TBB1)): 0
YCEMGSTFQLCKICAENDKDVKIEPCGHLMCTSCLTAWQESDGQGCPFCRCEIKGTEPII (CBLB RING domain (UniProt Q13191)): 0
B7 (MEX3B RING domain): 0
B8 (TRIM37 RING domain): 0
QVQSRTKIEECVVCSDKKAAVLFQPCGHMCACENCANLMKKCVQCRAVVERRVPFI (MIB1 RING domain (UniProt Q86YT6)): 0
FVKTVEDKYKCEKCHLVLCSPKQTECGHRFCESCMAALLSSSSPKCTACQESIVKDKVF (TRAF3 RING domain (UniProt Q13114)): 0
B9 (RNF122 RING domain): 0

Series 5
Target: Hepatocyte nuclear factor 3-alpha (Foxa1, Mus musculus, UniProt P35582, residues 1-468, full length assumed)
UniProt P35582, sequence (whole entry, looked up): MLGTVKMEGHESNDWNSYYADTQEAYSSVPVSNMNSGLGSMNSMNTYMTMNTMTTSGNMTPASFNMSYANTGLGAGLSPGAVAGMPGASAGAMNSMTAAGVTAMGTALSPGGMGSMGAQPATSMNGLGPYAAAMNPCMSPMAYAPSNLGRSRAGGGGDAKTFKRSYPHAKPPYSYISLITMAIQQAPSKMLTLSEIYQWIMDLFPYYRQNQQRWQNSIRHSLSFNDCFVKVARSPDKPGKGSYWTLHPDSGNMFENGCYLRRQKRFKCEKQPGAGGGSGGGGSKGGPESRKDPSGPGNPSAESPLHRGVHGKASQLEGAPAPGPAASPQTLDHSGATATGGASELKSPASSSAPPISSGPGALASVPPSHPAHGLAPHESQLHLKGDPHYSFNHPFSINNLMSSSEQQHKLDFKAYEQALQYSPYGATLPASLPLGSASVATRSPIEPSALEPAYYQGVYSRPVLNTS
Technique: EMSA with sequencing
Molecule type: double-stranded DNA, one strand shown
Sample: in vitro
Tested at: 10 and 20 nM
Notes: whole designed probe, mean of two concentrations, ends assumed
Reference: negative control set to 0
Direction: higher = stronger binding
Quantity: normalised bound fraction
Constant ends, left off below: GTGAGCGGTGCCCATTGATGGGGAAC … TTTCACTGGGATCGTGGGGAC
CACTCAGCTGTTTTCTTAAACTTGGTTGAATAACTGGTATTCTTCCTGCTCACAAAGTCTTTGTTAGTGTGCATATTGCAAAACCATCCTAAGTAAACAGTCTGTGTCATCTGTATTAAAGGGAAGTTATGCATGGATTAGTGTATAATAGCATGGGTTAGGGAGAAAAATGAGTCACCAAAGTAGCTGGTTC: 0.43 ratio
AGAAGAATAACCAGTGGGGCCAGTCAGGGATGCTTCAGATGTCACAGCAGTACTATGGGCAGCAAGTCTCAATGCAAGGACACTGGTACAATGTAATCTAGCATATTCCATACCACTGTGTCATTTTATATCTGTTAAATGGCAAAAGGCCTGTAGTATCCCTAAAGGAAAGTAAAGCTTAAGGCCACTTTTC: -0.0684 ratio
GACATGTTAAGGCTTGTTCTATTTATTAGAAAATATATAAAGAGTTCTTGGCTTAAGAACTCTTCTGGCTATCAGCTCCCTGATGTGAAAAAAGTAAATAGCAAGGGGTAGCATGGAGTCTTACTCCCGTGTGACAGACAGCTTAAGAAAGACAATTGGACATCATGTGACTACATGATTCAAGCTAAAGTCC: 0.234 ratio
GATTAAATATAGGAAAGTATGTATAAACTTACGTGAATATGCCCTGTTACATTCTACAAATTAAAAGTTGATTAGCTTTCTTGTGATCCCCAAAGTAAACATAAAAATGTATAAGCCTGAAATATTATCAATTAGAAAATATTTGGAGAAATTGCTTCTTAAAATATGGTAGAATATTTTAAGAAGCATTGTT: 0.437 ratio
ATCTTCCCCCTCTTCCTTGCCCCACCAGCTCACCTTCCCGGGTTATTTGCAGATAGGAAAATAAATAAAGCCGGCATGATGAATCATGCTTCACGCGCATACTGCTGTTTGCTCTGGATCTAACATGGTCCTTTGGCGACGCCAGGCTCCGGGAGAGCAAAGCACCGTGTCAGGGCCATGATCCGGGGTGGCC: 0.367 ratio
AACCCAGACAGTGACATCTTACAGGGGACTTCTTCTTCTTCCCCCATTGTATGTCTCCTCCTTTTATGTTTATCTAATCTATTCACATAACTATGTAATCTAGTACATTTACTAAAGTTTCTTCATGTTCATAAAATAATAACATACAGAATTATAAAAGTAGAAAGGTAAGGCCAAGCATGGGGGCTCACGC: 0.177 ratio
TTGAATGCAGATTTCATAATTAAAATTGTTAATTAAATAATAATTAAAAGTGTTTTAATAATAAAAGTCCACAATTAAAATTATTTTTATGCCATGTTTACTTATTATTTATTAAACATGCATTGAATAATTGCAATATATCAAAGAGTTTTCTGTTAGTGTGAGATATAAAACTATAATGTTCCAGTCCTCA: 0.312 ratio
ATCTTCCCCCTCTTCCTTGCCCCACCAGCTCACCTTCCCGGGTATCTGCAAATAAGGAAATTAATATAAGCCGGCATTCGTTAACCCTCTTCTGGCGCAAACTGCTGTTTACTTTGGATGAATCATGGTCCTTTGGCGACGCCAGGCTCCGGGAGAGCAAAGCACCGTGTCAGGGCCATGATCCGGGGTGGCC: 0.38 ratio

Excerpt of the above (series 1):
2'F-ANA at 4 6 9 10 11 12 14 15: 60.8 a.u.
2'F-ANA at 1 4 5 7 8 10 12 14 15: 51.2 a.u.
2'F-ANA at 5 10 11: 45.9 a.u.
2'F-ANA at 1 4 5 6 8 9 10 11 12 14 15: 52.6 a.u.
2'F-ANA at 1 2 6 7 8 10 11 13 15: 65.4 a.u.
2'F-ANA at 1 5 8 11 12 13 14: 72 a.u.
2'F-ANA at 1 2 6 7 8 9: 183 a.u.
2'F-ANA at 1 2 4 5 8 9 11 15: 51.5 a.u.
2'F-ANA at 4 6 7 12 13: 376 a.u.
2'F-ANA at 2 3 8 9 13 14: 395 a.u.
2'F-ANA at 2 3 5 7 8 10 11 13: 55.3 a.u.
2'F-ANA at 1 5 9 11 12 13 15: 67.6 a.u.
2'F-ANA at 1 2 8 10 11 12 13 14 15: 46.8 a.u.
